# Measurements from different studies.
# Every numbered part comes from another study and shows a few of its results, in no order. Changes are numbered by the printed parent chain.

# Sample 1
# Target: Ras GTPase-activating protein-binding protein 1, RRM domain (G3BP1, Homo sapiens, UniProt Q13283)
# Chain of UniProt Q13283 (whole entry, looked up): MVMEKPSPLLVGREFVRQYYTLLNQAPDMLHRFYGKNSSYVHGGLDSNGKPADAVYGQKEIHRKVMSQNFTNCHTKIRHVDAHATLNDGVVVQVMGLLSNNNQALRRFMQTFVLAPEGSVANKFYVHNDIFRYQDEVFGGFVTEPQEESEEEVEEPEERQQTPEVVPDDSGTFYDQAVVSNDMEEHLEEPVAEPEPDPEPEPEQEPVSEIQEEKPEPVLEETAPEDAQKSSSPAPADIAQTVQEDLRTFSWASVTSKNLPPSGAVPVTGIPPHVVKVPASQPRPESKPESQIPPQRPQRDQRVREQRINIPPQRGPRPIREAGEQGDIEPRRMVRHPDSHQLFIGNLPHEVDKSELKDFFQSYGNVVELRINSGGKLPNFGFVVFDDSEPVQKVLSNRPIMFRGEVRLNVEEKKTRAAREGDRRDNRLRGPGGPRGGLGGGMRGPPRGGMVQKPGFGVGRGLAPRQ
# Method: RNA Bind-n-Seq
# Molecule type: RNA
# Matrix: in vitro
# Concentration: 1 µM
# Setting: whole 134-nt RNA, ends assumed
# Added: 150 mM KCl
# Relative to: input library
# Reading: higher = stronger binding
Oligonucleotide,log2 enrichment
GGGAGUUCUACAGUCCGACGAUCUGGCCCUGGUGGCAUGCGGGGAGGAAGAGGUGGCCUCAUGGAUCGUGGUGUUCCCGGUGGAAUGUUCAGAGGUGGCCGUGGUGGAGACAGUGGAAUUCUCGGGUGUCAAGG,0.315
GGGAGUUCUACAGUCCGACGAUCAAGUCCUGUGCUACACAUCGUAUGUACCGAAUCGGGGAGGGGUGGGGUUUUUGGGGAAAGUAUUAUGUUACGCCGUUCGGAUCUGCACUUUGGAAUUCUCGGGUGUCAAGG,0.7
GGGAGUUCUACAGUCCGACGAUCGUCCUGUGCUACACAUCGUAUGUACCGAAUCGGGUUUUUUGGUUUUUUGGUUUUUUGGGAAAGUAUUAUGUUACGCCGUUCGGAUCUGCAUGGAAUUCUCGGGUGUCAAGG,-0.176
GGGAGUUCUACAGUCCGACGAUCUCCUGUGCUACACAUCGUAUGUACCGAAUCGGGGCCCCCGGGGCCCCCGGGCCCCCGGGAAAGUAUUAUGUUACGCCGUUCGGAUCUGCAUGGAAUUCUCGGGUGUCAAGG,-0.537
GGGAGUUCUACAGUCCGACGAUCUGGGAGGUGGAUUUUGUUUAUUUUUUUAGCUCAUUUCCAGGGGUGGGAAUUUUUUUUUAAUAUGUGUCAUGAAUAAAGUUGUUUUUGUAAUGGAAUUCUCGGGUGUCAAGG,1.76
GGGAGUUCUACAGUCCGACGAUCCAAGUCCUGUGCUACACAUCGUAUGUACCGAAUCGGUUUUUGGUUUGGAAAAAGGAAAGUAUUAUGUUACGCCGUUCGGAUCUGCACUUCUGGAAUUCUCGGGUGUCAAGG,-0.295
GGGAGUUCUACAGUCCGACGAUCUCCUGUGCUACACAUCGUAUGUACCGAAUCAAACCCCCAAAUUUUUUUAAAUUUUUAAAAAAGUAUUAUGUUACGCCGUUCGGAUCUGCAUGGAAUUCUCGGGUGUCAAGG,-0.521
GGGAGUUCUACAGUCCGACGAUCGCAGGAAGUAAAAACAAAUGGAAAUGCUUCGGAUAGUGGCAGGGGGGGGGGUUGCUAAGGAAAGGGUGGGAUGGGAGUGGGUAAAGAGUUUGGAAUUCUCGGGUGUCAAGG,0.772
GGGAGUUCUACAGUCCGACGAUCAGUCCUGUGCUACACAUCGUAUGUACCGAAUCGGGUUUUUUUGGGUGGGUUUUUGGGAAAGUAUUAUGUUACGCCGUUCGGAUCUGCACUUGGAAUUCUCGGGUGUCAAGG,0.535

# Sample 2
# Target: CCND2, cyclin fold, Cln2 fusion (human)
# Method: yeast growth competition, sequencing
# Matrix: yeast
# Setting: weak parent motif
# Relative to: not given
# Reading: higher = stronger binding
# Starting sequence: RRM2 docking peptide (human); SKTARRIFQEPTE
Change,normalised enrichment score
E10A,-0.131
E13A,0.216
F8A,0.404
T12A,0.123
Q9A,0.353
T3A,0.0247

# Sample 3
# Target: Centromere-binding protein 1, full length, N-terminal tag (CBF1, Saccharomyces cerevisiae, UniProt P17106, residues 1-351)
# Chain of UniProt P17106 (whole entry, looked up): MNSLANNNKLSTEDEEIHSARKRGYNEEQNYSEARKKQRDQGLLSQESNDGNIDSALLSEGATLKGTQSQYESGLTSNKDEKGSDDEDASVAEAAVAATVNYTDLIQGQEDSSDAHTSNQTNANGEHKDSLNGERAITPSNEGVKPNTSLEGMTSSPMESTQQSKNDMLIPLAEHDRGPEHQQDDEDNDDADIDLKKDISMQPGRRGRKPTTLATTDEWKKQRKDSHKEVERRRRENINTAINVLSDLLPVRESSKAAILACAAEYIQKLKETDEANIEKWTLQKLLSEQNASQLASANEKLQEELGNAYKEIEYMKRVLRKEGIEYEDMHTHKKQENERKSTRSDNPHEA
# Method: protein-binding microarray
# Molecule type: double-stranded DNA, one strand shown
# Matrix: in vitro
# Concentration: 0.8 µM
# Setting: whole 60-bp probe, no competitor
# Reading: higher = stronger binding
Oligonucleotide,fluorescence intensity
GAATTTTATATACATCAGGTCAAACATAAACCATAGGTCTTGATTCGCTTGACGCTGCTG,552 a.u.
CTAATAGACACCACAAACGTGCGCAAGAAACCGTTCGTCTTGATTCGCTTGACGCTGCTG,595 a.u.
CTAACATTCGTCAAAGTCACGAGGAACCTTGACTTCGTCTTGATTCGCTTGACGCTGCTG,2120 a.u.
CTAATATTAACTTTACACATGCATTGCCTATCATTCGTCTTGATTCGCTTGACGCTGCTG,607 a.u.
GAAATTGTACTATGTGATGTTACTGATACATCATAGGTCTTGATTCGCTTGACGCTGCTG,554 a.u.
CTATAATAGATAGTTGTGGTGATCATATTATAATTCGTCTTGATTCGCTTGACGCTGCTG,515 a.u.
CTAAAAGCTTGATAGAGGGTGACATTTGCTAGATTCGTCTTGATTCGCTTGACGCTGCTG,491 a.u.
CTACATCAACATTCTGTCACCTTGTTGATGCACTTCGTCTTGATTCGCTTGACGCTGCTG,562 a.u.
CCTAACTACTATAGACACGAAGAATAGCTTCGTACAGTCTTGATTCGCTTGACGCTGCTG,501 a.u.
CCTAACTACTATAACCTGACTCCATAGCTTCGTACAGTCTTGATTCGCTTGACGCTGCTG,562 a.u.
CTAGTCAGTATTTATAGCGTGATAGTTCATTACTTCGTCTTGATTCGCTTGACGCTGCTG,622 a.u.

# Further values, each from its own experiment
Substance,target,test,system,setting,scale,endpoint,value
"PhoQ, residues 284 288 289 292 302 303 GNNTDL","PhoP, residues 12 14 15 18 19 SYFRT (Escherichia coli, UniProt P23836)","Sort-seq, item: YFP reporter",E. coli,"PhoQ-PhoP variant library, added: 10 µM Mg2+","relative to: high Mg2+ state, higher = stronger signaling",fold induction,7.98
